Assay results collected from several papers.
Each line is one published result; not all experiments were run side by side. “And” joins repeats or separate records; there may be more than shown. ± gives the spread as reported.
Target: Glutamate carboxypeptidase 2 (FOLH1, Homo sapiens, UniProt Q04609)
Chain of UniProt Q04609 (whole entry, looked up): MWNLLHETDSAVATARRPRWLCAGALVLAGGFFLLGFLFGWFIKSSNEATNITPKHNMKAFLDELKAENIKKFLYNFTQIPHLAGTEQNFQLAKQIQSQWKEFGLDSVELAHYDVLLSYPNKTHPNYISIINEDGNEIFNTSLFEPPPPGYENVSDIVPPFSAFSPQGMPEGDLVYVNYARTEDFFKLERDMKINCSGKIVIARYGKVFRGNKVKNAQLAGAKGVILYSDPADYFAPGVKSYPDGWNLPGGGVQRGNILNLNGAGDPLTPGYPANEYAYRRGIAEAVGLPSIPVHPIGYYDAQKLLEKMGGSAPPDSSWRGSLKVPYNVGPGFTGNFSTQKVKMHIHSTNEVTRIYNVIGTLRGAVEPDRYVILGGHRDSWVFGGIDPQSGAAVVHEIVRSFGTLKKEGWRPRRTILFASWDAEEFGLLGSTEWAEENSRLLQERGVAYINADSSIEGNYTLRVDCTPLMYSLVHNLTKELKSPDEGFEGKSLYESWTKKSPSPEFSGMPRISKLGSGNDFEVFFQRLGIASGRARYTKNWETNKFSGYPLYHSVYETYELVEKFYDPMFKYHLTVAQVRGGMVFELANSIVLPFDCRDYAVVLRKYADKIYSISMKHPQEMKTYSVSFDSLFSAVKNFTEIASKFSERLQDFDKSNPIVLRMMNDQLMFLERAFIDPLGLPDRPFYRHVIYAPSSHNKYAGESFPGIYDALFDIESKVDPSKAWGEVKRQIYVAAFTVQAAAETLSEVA

CC1(C)C(=CC=C2CCCC(C=CC3=[N+](CCCCS(=O)(=O)[O-])c4ccc(S(=O)(=O)O)cc4C3(C)C)=C2Oc2ccc(S(=O)(=O)O)cc2)N(CCCCCC(=O)NCCCC[C@H](NC(=O)[C@@H](CCC(=O)O)NC(=O)[C@@H](CCC(=O)O)NC(=O)[C@@H](CCC(=O)O)NC(=O)CCCCCNC(=O)C2CCC(CNC(=O)CC[C@H](NC(=O)N[C@@H](CCC(=O)O)C(=O)O)C(=O)O)CC2)C(N)=O)c2ccc(S(=O)(=O)O)cc21 (stereo partly shown)  IC50 (radioligand binding, inhibitor; PC3pip; 1 h, 37 °C, with: [3H]-methyl ligand 12 nM): 1.53 ± 0.14 nM
O=C(O)CNC(=O)c1cc(CNC(=O)c2ccc(CNC(=O)[C@H]3C[C@H](NC(=O)CCNS(=O)(=O)c4ccc5ccccc5c4)CN3C(=O)c3nn(-c4ccccc4)c(=O)[nH]c3=O)cc2)cc(OCC(=O)NCCOCCOCCNC(=S)Nc2ccc3c(c2)C(=O)OC32c3ccc(O)cc3Oc3cc(O)ccc32)c1  Kd (cell-free assay, FP): 58 nM
CC1=CC(C)=[N+]2C1=C(CCCC(=O)NCCCCCC(=O)NCCCC[C@H](NC(=O)N[C@@H](CCC(=O)O)C(=O)O)C(=O)O)c1c(C)cc(C)n1[B-]2(F)F  Ki (ligand displacement in cells, radioligand): 19.6 nM
O=C(O)CC[C@H](OC(=O)N[C@@H](CCCCNC(=O)c1ccc(I)cc1)C(=O)O)C(=O)O  Ki (enzyme activity, inhibitor, fluorescence; lysate): 0.04 nM
O=C([O-])CN1CCN(CC(=O)[O-])CCN(CC(=O)NCC2CCC(C(=O)NC(Cc3ccc4ccccc4c3)C(=O)NCCCCC(NC(=O)NC(CCC(=O)O)C(=O)O)C(=O)O)CC2)CCN(CC(=O)[O-])CC1.[Sc+3] (stereo not shown)  Ki (ligand displacement, radioligand): 4.7 nM and 4.72 nM
CC1=CC(C)=[N+]2C1=C(CCCC(=O)NCC1CCC(C(=O)NC(Cc3ccc4ccccc4c3)C(=O)NCCCCC(NC(=O)NC(CCC(=O)O)C(=O)O)C(=O)O)CC1)c1c(C)cc(C)n1[B-]2(F)F (stereo not shown)  IC50 (ligand displacement in cells, radioligand): 124 nM
C[N+]1=C(C=CC=CC=C2N(CCCCCC(=O)NCCCC[C@H](NC(=O)[C@@H](CCC(=O)O)NC(=O)[C@@H](CCC(=O)O)NC(=O)[C@@H](CCC(=O)O)NC(=O)CCCCCNC(=O)C3CCC(CNC(=O)CC[C@H](NC(=O)N[C@@H](CCC(=O)O)C(=O)O)C(=O)O)CC3)C(N)=O)c3ccc4ccccc4c3C2(C)C)C(C)(C)c2c1ccc1ccccc21 (stereo partly shown)  IC50 (radioligand binding, inhibitor; PC3pip; 1 h, 37 °C, with: [3H]-methyl ligand 12 nM): 2.07 ± 0.13 nM
O=C(O)CC[C@H](NC(=O)O[C@@H](CCCCNC(=O)c1ccc(I)cc1)C(=O)O)C(=O)O  Ki (enzyme activity, inhibitor, fluorescence; lysate): 0.9 nM
NCC(=O)NC(CC(=O)O)C(=O)NC(CS)C(=O)NC(CCCCNC(=O)CCCCCCC(=O)NCCCCC(NC(=O)NC(CCC(=O)O)C(=O)O)C(=O)O)C(=O)O (stereo not shown)  Ki (enzyme activity, inhibitor, fluorescence; lysate): 0.17 nM
O=C(O)CC[C@H](NC(=O)N[C@@H](CCCCNC(=O)CCCCCCC(=O)NCCCCNC(=O)CN1CCN(CC(=O)O)CCN(CC(=O)O)CCN(CC(=O)O)CC1)C(=O)O)C(=O)O  IC50 (enzyme activity, inhibitor, fluorescence): 54 nM

Repeated from above:
C[N+]1=C(C=CC=CC=C2N(CCCCCC(=O)NCCCC[C@H](NC(=O)[C@@H](CCC(=O)O)NC(=O)[C@@H](CCC(=O)O)NC(=O)[C@@H](CCC(=O)O)NC(=O)CCCCCNC(=O)C3CCC(CNC(=O)CC[C@H](NC(=O)N[C@@H](CCC(=O)O)C(=O)O)C(=O)O)CC3)C(N)=O)c3ccc4ccccc4c3C2(C)C)C(C)(C)c2c1ccc1ccccc21 (stereo partly shown)  IC50 (radioligand binding, inhibitor; PC3pip; 1 h, 37 °C, with: [3H]-methyl ligand 12 nM): 2.07 ± 0.13 nM
O=C(O)CC[C@H](NC(=O)O[C@@H](CCCCNC(=O)c1ccc(I)cc1)C(=O)O)C(=O)O  Ki (enzyme activity, inhibitor, fluorescence; lysate): 0.9 nM
